Results from different studies.
Compare with care: the assays were run in different laboratories. ± gives the spread as reported.

With `CCN(Cc1ccccc1)C(=O)CCc1nc(CN2CCN(C(=O)Cc3ccc(OC)c(OC)c3)CC2)no1` the activation V1/2 was -54.3 ± 1.3 mV (KCNQ5 (Homo sapiens, UniProt Q9NR82); potassium current, whole-cell patch clamp; transfected cells; 3 µM).
`CCCCCCCC/C=C\CCCCCCCCOP(O)(O)=S.N` has a Tmax of 1 h (mouse, female, irradiated; sc, dose not given, 15.6 Gy partial-body, dosed 24 h after).
For `Cc1cc(Nc2nc(C[C@@]3(C(=O)O)CCN(Cc4cccc(Cl)c4F)[C@H](C)C3)cc(C)c2F)n[nH]1`, the Tmax was at most 1 h (BALB/c nude mouse, female, NCI-H446 xenograft, tumour; oral, 10 mg/kg).
With `N#CC1(c2ccc3c(N)ncnn23)OC(COP(=O)(O)OP(=O)(O)OP(=O)(O)O)C(O)C1O` (stereo not drawn) the Tmax was 1 h (LC-MS/MS; CD-1 mouse male, lung; oral, 100 mg/kg of remdesivir).
For `CCCCCCCC(=O)OC[C@H](NC(=O)[C@H](CO)NC(=O)CN)C(=O)N[C@@H](Cc1ccccc1)C(=O)N[C@@H](CC(C)C)C(=O)N[C@@H](CO)C(=O)N1CCC[C@H]1C(=O)N[C@@H](CCC(=O)O)C(=O)N[C@@H](Cc1cnc[nH]1)C(=O)N[C@@H](CCC(N)=O)C(=O)N[C@@H](CCCNC(=N)N)C(=O)N[C@H](C(=O)N[C@@H](CCC(N)=O)C(=O)N[C@@H](CCC(N)=O)C(=O)N[C@@H](CCCNC(=N)N)C(=O)N[C@@H](CCCCN)C(=O)N[C@@H](CCC(=O)O)C(=O)N[C@@H](CO)C(=O)N[C@@H](CCCCN)C(=O)N[C@@H](CCCCN)C(=O)N1CCC[C@H]1C(=O)N1CCC[C@H]1C(=O)N[C@@H](C)C(=O)N[C@@H](CCCCN)C(=O)N[C@@H](CC(C)C)C(=O)N[C@@H](CCC(N)=O)C(=O)N1CCC[C@H]1C(=O)N[C@@H](CCCNC(=N)N)C(=O)O)C(C)C`, the Tmax was 2.47 ± 1.48 h (ELISA; healthy humans, both sexes, plasma; intravenous bolus then infusion, 0.28 µg/kg bolus then 1 µg/kg/h, 210 min).
The tracer uptake of `COc1cc(C(=O)NCCOCCOCCOCCNC(=O)c2ccc([18F])nc2)ccc1NC(=O)C1NC(CC(C)(C)C)C(C#N)(c2ccc(Cl)cc2F)C1c1cccc(Cl)c1F` (stereo not drawn) is reported as 3.52 %ID/g (HepG2 tumour model; host not given, heart; 30 min, tumour-bearing).
For `CC(=CCC(O)C(C)=Cc1csc(C)n1)CC=CC(C)C(O)C(C)C(=O)C(C)(C)C(O)CC(=O)O` (stereo not drawn), the Tmax was 3.3 ± 0.47 h (human, plasma; intravenous infusion, 15.0 mg/m2 KOS-1584, 3 h infusion, cycle 1).
For `CN[C@](C)(C[18F])C(=O)O`, the tracer uptake was 1.7 %ID/g (DU-145 tumour model; host not given, muscle; 30 min, tumour-bearing).
The Tmax of `CC(C)C[C@@H](NC(=O)[C@@H](Cc1ccccc1)NC(=O)[C@H](N)Cc1ccccc1)C(=O)N[C@H](CCCCN)C(=O)N1CCC(N)(C(=O)O)CC1` is reported as about 0.0833 h (human, plasma; intravenous, 5 and 15 µg/kg).
`CCOC(=O)[C@@H]1Cc2c(cc([N+](=O)[O-])cc2[N+](=O)[O-])[C@H](O)[C@]12C(=O)Nc1ccc(Br)cc12` has a Tmax of 4.03 h (Sprague-Dawley rat, plasma; oral, 15 mg/kg).
For `N=C(N)NCCC[C@@H]1NC(=O)[C@H](CCCCNC(=O)CNC(=O)CNC(=O)CNC(=O)CC[C@H](NC(=O)CCOCCOCCOCCOCCNC(=O)CC[C@H](NC(=O)CN2CCN(CC(=O)O)CCN(CC(=O)O)CCN(CC(=O)O)CC2)C(=O)NCCOCCOCCOCCOCCC(=O)N[C@@H](CCC(=O)NCC(=O)NCC(=O)NCC(=O)NCCCC[C@@H]2NC(=O)[C@@H](Cc3ccccc3)NC(=O)[C@H](CC(=O)O)NC(=O)CNC(=O)[C@H](CCCNC(=N)N)NC2=O)C(=O)NCC(=O)NCC(=O)NCC(=O)NCCCC[C@@H]2NC(=O)[C@@H](Cc3ccccc3)NC(=O)[C@H](CC(=O)O)NC(=O)CNC(=O)[C@H](CCCNC(=N)N)NC2=O)C(=O)NCC(=O)NCC(=O)NCC(=O)NCCCC[C@@H]2NC(=O)[C@@H](Cc3ccccc3)NC(=O)[C@H](CC(=O)O)NC(=O)CNC(=O)[C@H](CCCNC(=N)N)NC2=O)NC(=O)[C@@H](Cc2ccccc2)NC(=O)[C@H](CC(=O)O)NC(=O)CNC1=O` [indium-111 labelled], “tumour to muscle ratio” read 18.1 ± 2.95 (female athymic nude mouse; intravenous, 3 µCi, 4 h, U-87 MG glioma xenograft; baseline: tumour over muscle).
`CCC(CC)OC1C=C(C(=O)OC(C)OC(=O)C(N)C(C)C)CC(NC(=N)N)C1NC(C)=O` (mixture of isomers) has a Tmax of 2.4 ± 1.3 h (mouse (fed), plasma; oral, 10 mg/kg).
For `CCc1c2c(nc3ccc(OC4OC(C(=O)O)C(O)C(O)C4O)cc13)-c1cc3c(c(=O)n1C2)COC(=O)C3(O)CC` (stereo not drawn), the Tmax was 5.69 h (human patients, plasma; intravenous, 32 mg/m^2 of parent drug).
`CCCC[C@H](NC(=O)CNC(=O)CNC(=O)c1ccc(NN)nc1)C(=O)N[C@H]1CC(=O)NCCCC[C@@H](C(N)=O)NC(=O)[C@H](Cc2c[nH]c3ccccc23)NC(=O)[C@H](CCCNC(=N)N)NC(=O)[C@@H](Cc2ccccc2)NC(=O)[C@H](Cc2c[nH]cn2)NC1=O` [technetium-99m labelled] has an uptake of 4.37 ± 0.36 %ID/g (C57 mouse, B16/F1 melanoma, kidneys; 2 h, together with: L-lysine 12 mg).
With `C(#Cc1cncc(OC[C@@H]2CCN2)c1)c1ccccc1` the Tmax was 0.92 h (male Sprague-Dawley rat, plasma; oral, 75 mg/kg).

Repeated from above:
For `Cc1cc(Nc2nc(C[C@@]3(C(=O)O)CCN(Cc4cccc(Cl)c4F)[C@H](C)C3)cc(C)c2F)n[nH]1`, the Tmax was at most 1 h (BALB/c nude mouse, female, NCI-H446 xenograft, tumour; oral, 10 mg/kg).
With `N#CC1(c2ccc3c(N)ncnn23)OC(COP(=O)(O)OP(=O)(O)OP(=O)(O)O)C(O)C1O` (stereo not drawn) the Tmax was 1 h (LC-MS/MS; CD-1 mouse male, lung; oral, 100 mg/kg of remdesivir).
